Measured values gathered from unrelated publications.
Compare with care: the assays were run in different laboratories. “And” joins repeats or separate records; there may be more than shown. ± gives the spread as reported.
Sequence of UniProt P49915 (whole entry, looked up): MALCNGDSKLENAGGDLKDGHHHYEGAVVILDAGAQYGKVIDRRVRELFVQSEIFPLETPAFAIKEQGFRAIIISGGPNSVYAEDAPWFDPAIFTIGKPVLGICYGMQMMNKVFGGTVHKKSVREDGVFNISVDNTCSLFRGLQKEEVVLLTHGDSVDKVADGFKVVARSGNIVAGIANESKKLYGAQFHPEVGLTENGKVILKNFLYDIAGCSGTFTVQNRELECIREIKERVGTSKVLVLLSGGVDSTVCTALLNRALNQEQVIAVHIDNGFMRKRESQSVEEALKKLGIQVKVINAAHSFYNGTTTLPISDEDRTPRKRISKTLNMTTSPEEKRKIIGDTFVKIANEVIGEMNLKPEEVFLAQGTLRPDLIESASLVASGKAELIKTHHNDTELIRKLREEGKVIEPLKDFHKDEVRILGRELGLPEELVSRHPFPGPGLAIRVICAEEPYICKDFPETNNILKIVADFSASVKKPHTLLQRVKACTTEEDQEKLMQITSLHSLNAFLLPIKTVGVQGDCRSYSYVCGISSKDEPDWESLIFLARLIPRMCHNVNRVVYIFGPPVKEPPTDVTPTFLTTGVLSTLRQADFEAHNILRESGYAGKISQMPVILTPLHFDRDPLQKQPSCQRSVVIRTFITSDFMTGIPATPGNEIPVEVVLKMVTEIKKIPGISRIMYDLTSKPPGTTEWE
Sequence of UniProt P05067 (whole entry, looked up): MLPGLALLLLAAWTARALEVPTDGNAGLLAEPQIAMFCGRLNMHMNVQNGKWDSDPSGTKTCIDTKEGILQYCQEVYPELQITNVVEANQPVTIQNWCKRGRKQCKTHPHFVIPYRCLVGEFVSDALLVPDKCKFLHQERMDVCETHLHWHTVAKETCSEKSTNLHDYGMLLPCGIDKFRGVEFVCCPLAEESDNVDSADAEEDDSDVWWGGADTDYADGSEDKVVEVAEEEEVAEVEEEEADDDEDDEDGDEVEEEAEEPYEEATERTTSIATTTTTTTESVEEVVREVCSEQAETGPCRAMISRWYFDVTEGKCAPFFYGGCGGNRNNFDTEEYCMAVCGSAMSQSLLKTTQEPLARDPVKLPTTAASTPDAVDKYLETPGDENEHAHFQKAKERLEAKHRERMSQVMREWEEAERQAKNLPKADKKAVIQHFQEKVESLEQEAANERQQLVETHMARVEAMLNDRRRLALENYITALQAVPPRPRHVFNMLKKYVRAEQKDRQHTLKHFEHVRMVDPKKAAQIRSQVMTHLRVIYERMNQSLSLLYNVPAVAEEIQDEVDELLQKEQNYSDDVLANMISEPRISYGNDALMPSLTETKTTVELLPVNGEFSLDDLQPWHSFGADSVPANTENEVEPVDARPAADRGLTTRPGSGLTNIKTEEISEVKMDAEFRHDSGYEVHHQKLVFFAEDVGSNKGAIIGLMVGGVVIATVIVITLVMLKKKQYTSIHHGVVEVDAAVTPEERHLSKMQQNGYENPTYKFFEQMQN
Sequence of UniProt P02754 (whole entry, looked up): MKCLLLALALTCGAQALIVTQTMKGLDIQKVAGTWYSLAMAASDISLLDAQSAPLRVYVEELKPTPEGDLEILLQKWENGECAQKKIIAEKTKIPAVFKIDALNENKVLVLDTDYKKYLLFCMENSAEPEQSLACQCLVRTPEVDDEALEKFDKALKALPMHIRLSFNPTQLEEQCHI
Sequence of UniProt P31749 (whole entry, looked up): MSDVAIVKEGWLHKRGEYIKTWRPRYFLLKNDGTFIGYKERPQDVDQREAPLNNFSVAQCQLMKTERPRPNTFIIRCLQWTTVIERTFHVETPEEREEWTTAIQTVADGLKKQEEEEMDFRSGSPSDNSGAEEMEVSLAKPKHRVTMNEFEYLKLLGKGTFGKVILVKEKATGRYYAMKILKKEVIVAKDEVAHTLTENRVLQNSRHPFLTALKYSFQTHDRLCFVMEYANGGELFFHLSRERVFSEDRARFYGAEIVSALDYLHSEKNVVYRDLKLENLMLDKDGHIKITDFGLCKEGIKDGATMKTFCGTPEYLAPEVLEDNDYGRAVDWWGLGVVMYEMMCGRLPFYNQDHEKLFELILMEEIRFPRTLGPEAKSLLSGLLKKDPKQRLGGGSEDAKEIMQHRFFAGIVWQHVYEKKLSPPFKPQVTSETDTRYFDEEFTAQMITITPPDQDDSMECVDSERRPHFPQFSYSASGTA
Sequence of UniProt Q04609 (whole entry, looked up): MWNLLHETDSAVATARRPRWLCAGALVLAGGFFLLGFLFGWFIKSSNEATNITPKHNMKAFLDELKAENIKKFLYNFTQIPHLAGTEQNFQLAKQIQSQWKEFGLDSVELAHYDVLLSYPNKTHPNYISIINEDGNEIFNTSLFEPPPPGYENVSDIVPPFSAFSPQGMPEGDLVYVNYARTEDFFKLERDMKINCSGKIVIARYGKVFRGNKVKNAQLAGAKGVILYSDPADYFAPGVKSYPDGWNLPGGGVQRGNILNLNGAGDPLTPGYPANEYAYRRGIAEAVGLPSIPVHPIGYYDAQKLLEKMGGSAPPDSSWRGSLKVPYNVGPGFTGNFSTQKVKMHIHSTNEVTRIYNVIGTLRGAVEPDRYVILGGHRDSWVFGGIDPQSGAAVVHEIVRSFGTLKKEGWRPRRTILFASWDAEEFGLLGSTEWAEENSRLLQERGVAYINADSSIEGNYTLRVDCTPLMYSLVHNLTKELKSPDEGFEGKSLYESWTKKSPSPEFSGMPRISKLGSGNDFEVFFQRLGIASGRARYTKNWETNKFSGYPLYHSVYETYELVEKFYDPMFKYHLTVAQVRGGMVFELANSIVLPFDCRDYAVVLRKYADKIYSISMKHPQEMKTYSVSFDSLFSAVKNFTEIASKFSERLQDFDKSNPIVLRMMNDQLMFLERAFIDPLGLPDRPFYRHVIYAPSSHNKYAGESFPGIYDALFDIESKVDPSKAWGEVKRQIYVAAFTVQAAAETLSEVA
Sequence of UniProt P03146 (whole entry, looked up): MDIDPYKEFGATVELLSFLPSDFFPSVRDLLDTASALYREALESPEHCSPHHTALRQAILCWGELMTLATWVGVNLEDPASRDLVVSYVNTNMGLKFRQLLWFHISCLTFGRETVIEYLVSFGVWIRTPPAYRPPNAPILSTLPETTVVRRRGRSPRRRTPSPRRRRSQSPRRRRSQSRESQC

Structure (SMILES)	tested on	assay	system	setting	scale	quantity	value
CC1=C[C@H](O)CC(C)(C)[C@H]1/C=C/C(C)=C/C=C/C(C)=C/C=C/C=C(C)/C=C/C=C(C)/C=C/C1=C(C)C[C@@H](O)CC1(C)C	Beta-lactoglobulin (LGB, Bos taurus, UniProt P02754)	fluorescence quenching	–	303 K	–	Stern-Volmer quenching constant	32500 ± 6500 L/mol
O=C(Cn1ccnc1)Nc1ccc([C@H]2[C@@H](F)[C@@H](F)C[C@@H](F)[C@H]2F)cc1	–	–	dog liver microsomes	1 µM	–	hepatic clearance	7.3 mL/min/kg
CO/N=C(\C(=O)N[C@@H]1C(=O)N2C(C(=O)[O-])=C(C[N+]3(C)CCCC3)CS[C@H]12)c1csc(N)n1	beta-lactamase RAD-1 (Riemerella anatipestifer)	substrate, continuous spectrophotometric hydrolysis	–	30 °C	–	Km	603 ± 89 µM
O=C(O)CC[C@H](NC(=O)N[C@@H](CCCCNC(=O)CCCCCCC(=O)NCCCC[C@@H](NC(=O)[C@H](CCC(=O)O)NC(=O)[C@H](CCC(=O)O)NC(=O)CCC(=O)NCCCN1CC[S][Tc]2(=[O])[S]CC[N]2CC1)C(=O)O)C(=O)O)C(=O)O (stereo partly drawn) [technetium-99m labelled]	Glutamate carboxypeptidase 2 (FOLH1, Homo sapiens, UniProt Q04609)	saturation binding	LNCaP	1 h, 37 °C	–	Bmax	12 ± 0.3 pmol/mg
CNc1ccc(-c2nc3ccc(O)cc3s2)cc1	Amyloid-beta precursor protein, amyloid-beta (APP, Homo sapiens, UniProt P05067)	binding, competition binding	amyloid-beta aggregates	1.235 nM, added: tritiated amyloid ligand	–	inhibition	34.7% and 28.9%
CC[C@@H]1[C@H](F)C(=O)N[C@@H]1COc1nccc2cc(C(N)=O)c(OC)cc12	RAC-alpha serine/threonine-protein kinase (AKT1, Homo sapiens, UniProt P31749)	ATP probe binding, KiNativ profiling, refers to: ATP loop probe site	THP-1 cell lysate	0.04 mM	–	inhibition	7.5%
O=C(Nc1ccc(C2CCCCC2)cc1)c1cn[nH]c1	–	–	human liver microsomes	1 µM, without NADPH	–	hepatic clearance	3.9 mL/min/kg
CC(C)[C@H](NC(=O)c1cc(-c2cnn3cc(-c4ccc(OCCN5CCCCC5)cc4)cnc23)cs1)C(F)(F)F	PYK2 (human)	radiometric kinase	–	15 nM	relative to: PYK2 over ULK1	relative inhibition	0
O=C(O)c1ccc(Nc2ncc3c(n2)-c2ccc(Cl)cc2C(c2c(F)cccc2F)=NC3)cc1	MRCKα(h)	kinase activity	–	1 µM	–	remaining activity	101%
CC[C@H](C)[C@H](NC(=O)[C@H](Cc1ccccc1)NC(=O)[C@H](CCC(=O)O)NC(=O)[C@H](CCCNC(=N)N)NC(=O)[C@H](C)NC(=O)[C@H](C)NC(=O)[C@H](CCC(N)=O)NC(=O)[C@H](CCCCNc1c(NCCCCCN(O)C(=O)CCC(=O)NCCCCCN(O)C(=O)CCC(=O)NCCCCCN(O)C(C)=O)c(=O)c1=O)NC(=O)[C@H](CCC(=O)O)NC(=O)[C@H](CC(C)C)NC(=O)[C@H](Cc1ccc(O)cc1)NC(=O)[C@H](CO)NC(=O)[C@H](CO)NC(=O)[C@@H](NC(=O)[C@H](CC(=O)O)NC(=O)[C@H](CO)NC(=O)[C@@H](NC(=O)[C@H](Cc1ccccc1)NC(=O)[C@@H](NC(=O)CNC(=O)[C@H](CCC(=O)O)NC(=O)[C@H](C)NC(=O)CCc1cnc[nH]1)[C@@H](C)O)[C@@H](C)O)C(C)C)C(=O)N[C@@H](C)C(=O)N[C@@H](Cc1c[nH]c2ccccc12)C(=O)N[C@@H](CC(C)C)C(=O)N[C@H](C(=O)N[C@@H](CCCNC(=N)N)C(=O)NCC(=O)N[C@@H](CCCNC(=N)N)C(=O)N[C@@H](CCCCNC(=O)COCCOCCNC(=O)COCCOCCNC(=O)CC[C@H](NC(=O)CCCCCCCCCCCCCCCCC(=O)O)C(=O)O)C(=O)NCC(=O)NCC(=O)N[C@@H](CO)C(=O)N[C@@H](CCCCNc1c(NCCCCCN(O)C(=O)CCC(=O)NCCCCCN(O)C(=O)CCC(=O)NCCCCCN(O)C(C)=O)c(=O)c1=O)C(=O)O)C(C)C	Glucagon-like peptide 1 receptor (GLP1R, Homo sapiens, UniProt P43220)	agonist, CRE luciferase reporter	BHK cells	metal-free DFO conjugate, added: 1% HSA	relative to: parent peptide	fold potency loss	4.4
NC1CCN(S(=O)(=O)c2cc(C(=O)Nc3cc(F)c(F)c(F)c3)ccc2F)CC1	Capsid protein (C, Hepatitis B virus genotype D subtype ayw, UniProt P03146)	surface plasmon resonance	–	25 °C	–	koff	0.0474 s⁻¹
O=C(COP(=O)(O)O)[C@@H](O)[C@H](O)[C@H](O)COP(=O)(O)O	GMP synthase [glutamine-hydrolyzing] (Homo sapiens, UniProt P49915)	thermal proteome profiling, refers to: GMPS	HepG2 cell lysate	concentration not given, 57 over 37 °C	relative to: compound over control	thermal stability ratio	0.421 and 0.458 and 0.583

A few entries again:
Structure (SMILES)	tested on	assay	system	setting	scale	quantity	value
O=C(Cn1ccnc1)Nc1ccc([C@H]2[C@@H](F)[C@@H](F)C[C@@H](F)[C@H]2F)cc1	–	–	dog liver microsomes	1 µM	–	hepatic clearance	7.3 mL/min/kg
